# Experimental data gathered from unrelated publications.
# Each numbered part is a random draw from the data of one study; scales do not carry over between parts. Changes are numbered by the printed parent chain.

# Set 1
# Target: ABI1, truncated, D143A, DHFR fusion (Arabidopsis thaliana, UniProt P49597)
# Technique: DHFR PCA, dose-response
# Matrix: yeast
# Setting: Hill fit, not affinity, not high confidence
# Added: (+)-ABA, dose series
# Reading: lower = more sensitive
# Starting sequence: PYL1, truncated, DHFR fusion (Arabidopsis thaliana, UniProt Q8VZS8); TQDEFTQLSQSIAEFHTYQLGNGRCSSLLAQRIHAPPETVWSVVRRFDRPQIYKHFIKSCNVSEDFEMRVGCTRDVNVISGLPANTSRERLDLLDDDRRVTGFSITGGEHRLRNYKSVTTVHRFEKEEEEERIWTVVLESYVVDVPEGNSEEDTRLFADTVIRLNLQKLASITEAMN
Substitution,ABA EC50 [µM]
Y141A,3.79
I33D,23.3
Y141R,9.47
V40Q,63.8
H110M,602
V118P,32.8
F56R,535
L166K,9.03
E139P,5.05
L82Y,18
D153I,1670
A158W,0.205
K54L,21
F47A,607
N114I,272
S140I,263
L91T,35.1

# Set 2
# Target: Sal-like protein 4, full length isoform A (SALL4, Homo sapiens, UniProt Q9UJQ4, residues 1-1053)
# Technique: universal PBM
# Form: double-stranded DNA, one strand shown
# Matrix: in vitro
# Tested at: 600 nM
# Setting: 8-mer, flanks averaged, mean of replicates
# Reading: higher = stronger binding
Oligonucleotide,E-score
GCGTTCCA,-0.17
ATTTTCGG,0.194
GGTGCAGA,-0.177
GGTAGCGA,-0.0732
GGAGAAGA,-0.0121
CTAGAGAG,-0.0845
GACTATCA,0.0903
CTACAGTA,0.0988
AACCATAG,0.0369
GCAACTGC,-0.0951
ATCAGAAC,0.0535
AACACGCT,0.00315
AAAATTCC,0.238
GACTGCGC,-0.141
ATCTCAGG,-0.0934
ATCAGCAG,0.0185
ACTAAAAC,0.0877
CTCTCCTA,0.112
ACTGACAT,0.161
GAAGTTTA,0.205
CTATTCAA,0.237
ACAGCTCC,-0.124
ACACGCTG,-0.11
GACTAGGA,-0.00307

# Set 3
# Target: Histone acetyltransferase KAT6A, both winged helices, GST fusion (KAT6A, Homo sapiens, UniProt Q92794, residues 1-181)
# Technique: protein binding microarray
# Form: double-stranded DNA, one strand shown
# Matrix: in vitro
# Tested at: not given
# Setting: 8-mer, flanks averaged, mean of 2 arrays, mostly near background
# Baseline: not given
# Reading: higher = stronger binding
# Residues (chain): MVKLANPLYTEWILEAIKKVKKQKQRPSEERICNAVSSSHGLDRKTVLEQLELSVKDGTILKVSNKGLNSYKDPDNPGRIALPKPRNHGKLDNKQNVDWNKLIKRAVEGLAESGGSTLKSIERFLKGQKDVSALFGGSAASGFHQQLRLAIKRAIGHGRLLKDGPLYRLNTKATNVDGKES
Oligonucleotide,E-score
ACTCATCT,-0.278
ATGCACGG,0.138
GATAAGTA,0.0378
ACACGGAT,0.156
ACTCTGAG,-0.239
AGCAACCG,-0.00369
CGCGCAAC,0.385
CTAATTCC,-0.121
CCAATCTA,-0.189
CTAGTGTA,-0.0594
AAGCTTCT,-0.0637
GGCAGCCC,0.00693
CTACGTTA,-0.00932
CAAACCCA,-0.08
TCCTTAGA,-0.159
AAGTGCTC,-0.15
CTGCGGTC,0.217
CGTGGCAG,-0.0779

# Set 4
# Molecule: B1 (RFWD3 RING domain)
# Technique: yeast two-hybrid
# Matrix: yeast
# Setting: mostly zero background
# Baseline: not given
# Reading: higher = stronger interaction
# B1: RFWD3 RING domain (UniProt Q6PCD5); chain ASMDEEEGDTCTICLEQWTNAGDHRLSALRCGHLFGYRCISTWLKGQVRKCPQCNKKARHSDIVV
target,lacZ reporter activity
UBE2Q1 UBC core domain (UniProt Q7Z7E8),0
UBE2D1 UBC core domain (UniProt P51668),11100
UBE2Z UBC core domain (UniProt Q9H832),0
UBE2S UBC core domain (UniProt Q16763),0
UBE2R2 UBC core domain (UniProt Q712K3),0
UBE2B UBC core domain (UniProt P63146),0
UBE2O UBC core domain (UniProt Q9C0C9),0
UBE2J2 UBC core domain (UniProt Q8N2K1),0

# Set 5
# Target: CCNB2, cyclin fold, Cln2 fusion (human)
# Technique: yeast growth competition, sequencing
# Matrix: yeast
# Setting: weak parent motif
# Baseline: not given
# Reading: higher = stronger binding
# Starting sequence: RB1 docking peptide (human); PKPLKKLRFDIEG; partner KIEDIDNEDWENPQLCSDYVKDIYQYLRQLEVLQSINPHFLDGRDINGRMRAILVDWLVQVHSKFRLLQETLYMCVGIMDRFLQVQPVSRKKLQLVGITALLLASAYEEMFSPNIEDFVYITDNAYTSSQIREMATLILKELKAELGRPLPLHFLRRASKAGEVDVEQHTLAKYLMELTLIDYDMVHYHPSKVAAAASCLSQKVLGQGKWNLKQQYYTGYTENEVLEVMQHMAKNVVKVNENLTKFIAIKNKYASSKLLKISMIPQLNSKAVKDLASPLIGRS
Substitution,normalised enrichment score
PKPLKKLRFDTEG [I11T],-0.214
PKPLKKLRFIIEG [D10I],-0.305
PKPLKKKRFDIEG [L7K],0.795
PKPLKELRFDIEG [K6E],-0.386
PKPLKMLRFDIEG [K6M],0.283
PKPLGKLRFDIEG [K5G],0.128
PKPLKKLRFPIEG [D10P],0.383
PFPLKKLRFDIEG [K2F],0.119
PKPLKKLRADIEG [F9A],0.576
PSPLKKLRFDIEG [K2S],0.499
SKPLKKLRFDIEG [P1S],0.163
PKPLKTLRFDIEG [K6T],-0.0505
PGPLKKLRFDIEG [K2G],0.328
PKPLFKLRFDIEG [K5F],-0.37
FKPLKKLRFDIEG [P1F],0.34
PKPLKKLRFWIEG [D10W],-0.0981
PKPLKKGRFDIEG [L7G],0.38
PVPLKKLRFDIEG [K2V],0.483
PKPLKNLRFDIEG [K6N],-0.246
PKPLKKFRFDIEG [L7F],-0.114
PKPQKKLRFDIEG [L4Q],0.345
PKPKKKLRFDIEG [L4K],0.0415
PKPLKKLMFDIEG [R8M],0.299
PKPLKFLRFDIEG [K6F],0.385
PKPPKKLRFDIEG [L4P],0.0601

# Set 6
# Target: ATF5, bZIP domain (human)
# Technique: DHFR protein complementation
# Matrix: yeast
# Setting: single substitutions, most at no-binding floor
# Baseline: wild-type JUN-FOS pair
# Reading: higher = stronger binding
# Starting sequence: JUN, bZIP domain (human); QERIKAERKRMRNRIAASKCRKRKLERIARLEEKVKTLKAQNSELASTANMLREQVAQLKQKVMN; partner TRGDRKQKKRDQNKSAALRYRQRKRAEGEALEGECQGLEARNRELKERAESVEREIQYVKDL
Substitution,binding fitness [natural log]
R53Q,-1.44
K34H,-1.53
K34A,-1.5
K34T,-1.4
L45V,-1.48
E32F,-1.5
A57Q,-1.61
K36W,-1.43
A49D,-0.998
R53L,-1.54
E44A,-1.49
M51T,-1.24
L52V,-1.51
S47H,-1.38
L59S,-1.53
K39R,-1.49

# For quick reference, copied from above (set 5):
Substitution,normalised enrichment score
SKPLKKLRFDIEG [P1S],0.163
PKPLKTLRFDIEG [K6T],-0.0505
PGPLKKLRFDIEG [K2G],0.328
PKPLFKLRFDIEG [K5F],-0.37
FKPLKKLRFDIEG [P1F],0.34
PKPLKKLRFWIEG [D10W],-0.0981
